Measurements pooled from the literature.
Each line is one published result; not all experiments were run side by side. pIC50: −log10 of the molar value.
Sequence of UniProt Q6QNK2 (whole entry, looked up): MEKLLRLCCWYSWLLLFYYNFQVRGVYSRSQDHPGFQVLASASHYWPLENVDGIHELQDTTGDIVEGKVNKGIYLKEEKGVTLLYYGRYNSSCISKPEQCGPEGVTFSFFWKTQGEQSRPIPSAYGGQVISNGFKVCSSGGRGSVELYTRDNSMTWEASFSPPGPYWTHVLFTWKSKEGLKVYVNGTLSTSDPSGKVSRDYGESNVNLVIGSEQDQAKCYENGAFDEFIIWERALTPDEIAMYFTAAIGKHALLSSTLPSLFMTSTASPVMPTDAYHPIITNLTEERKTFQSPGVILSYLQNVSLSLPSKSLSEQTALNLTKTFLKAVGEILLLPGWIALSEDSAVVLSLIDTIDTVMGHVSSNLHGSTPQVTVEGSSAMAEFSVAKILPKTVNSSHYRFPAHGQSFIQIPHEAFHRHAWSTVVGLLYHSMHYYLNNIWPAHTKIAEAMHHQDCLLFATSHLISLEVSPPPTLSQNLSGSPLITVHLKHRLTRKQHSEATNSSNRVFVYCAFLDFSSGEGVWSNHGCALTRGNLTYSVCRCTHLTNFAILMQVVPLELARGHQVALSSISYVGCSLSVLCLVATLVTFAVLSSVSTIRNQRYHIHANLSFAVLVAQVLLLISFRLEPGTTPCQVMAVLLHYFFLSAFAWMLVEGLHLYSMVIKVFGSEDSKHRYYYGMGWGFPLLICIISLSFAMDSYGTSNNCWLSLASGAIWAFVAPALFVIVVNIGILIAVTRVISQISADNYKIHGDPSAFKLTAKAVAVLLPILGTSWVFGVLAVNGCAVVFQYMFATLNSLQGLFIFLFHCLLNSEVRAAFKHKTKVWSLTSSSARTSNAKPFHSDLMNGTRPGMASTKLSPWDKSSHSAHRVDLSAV
Sequence of UniProt P00519 (whole entry, looked up): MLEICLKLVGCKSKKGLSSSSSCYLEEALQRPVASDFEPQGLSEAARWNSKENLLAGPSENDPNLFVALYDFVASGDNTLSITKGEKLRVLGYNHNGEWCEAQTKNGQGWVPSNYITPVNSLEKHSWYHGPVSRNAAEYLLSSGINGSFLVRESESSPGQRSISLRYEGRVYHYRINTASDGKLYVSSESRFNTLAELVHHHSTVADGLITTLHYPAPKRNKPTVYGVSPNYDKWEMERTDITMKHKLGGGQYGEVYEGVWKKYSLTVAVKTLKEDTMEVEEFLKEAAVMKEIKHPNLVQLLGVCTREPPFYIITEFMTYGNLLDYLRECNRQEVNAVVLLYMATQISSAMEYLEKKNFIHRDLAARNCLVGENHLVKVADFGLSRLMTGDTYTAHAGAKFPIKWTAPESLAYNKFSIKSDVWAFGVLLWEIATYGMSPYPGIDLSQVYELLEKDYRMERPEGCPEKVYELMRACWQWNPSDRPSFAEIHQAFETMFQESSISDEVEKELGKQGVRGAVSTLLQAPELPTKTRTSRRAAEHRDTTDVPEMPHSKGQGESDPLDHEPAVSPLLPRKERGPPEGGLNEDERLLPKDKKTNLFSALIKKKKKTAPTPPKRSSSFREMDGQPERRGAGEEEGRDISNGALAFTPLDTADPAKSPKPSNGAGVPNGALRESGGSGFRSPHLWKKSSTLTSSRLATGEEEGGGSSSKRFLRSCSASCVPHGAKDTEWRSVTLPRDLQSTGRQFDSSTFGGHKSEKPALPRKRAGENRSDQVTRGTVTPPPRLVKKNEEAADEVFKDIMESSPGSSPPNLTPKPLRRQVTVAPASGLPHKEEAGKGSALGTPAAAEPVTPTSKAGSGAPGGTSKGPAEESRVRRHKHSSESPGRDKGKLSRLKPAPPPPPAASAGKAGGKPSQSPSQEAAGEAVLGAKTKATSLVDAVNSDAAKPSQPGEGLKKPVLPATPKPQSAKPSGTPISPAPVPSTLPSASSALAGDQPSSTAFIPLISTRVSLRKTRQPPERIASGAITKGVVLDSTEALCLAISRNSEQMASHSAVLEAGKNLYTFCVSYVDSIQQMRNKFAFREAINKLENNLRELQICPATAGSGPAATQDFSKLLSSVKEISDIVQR
Sequence of UniProt P35462 (whole entry, looked up): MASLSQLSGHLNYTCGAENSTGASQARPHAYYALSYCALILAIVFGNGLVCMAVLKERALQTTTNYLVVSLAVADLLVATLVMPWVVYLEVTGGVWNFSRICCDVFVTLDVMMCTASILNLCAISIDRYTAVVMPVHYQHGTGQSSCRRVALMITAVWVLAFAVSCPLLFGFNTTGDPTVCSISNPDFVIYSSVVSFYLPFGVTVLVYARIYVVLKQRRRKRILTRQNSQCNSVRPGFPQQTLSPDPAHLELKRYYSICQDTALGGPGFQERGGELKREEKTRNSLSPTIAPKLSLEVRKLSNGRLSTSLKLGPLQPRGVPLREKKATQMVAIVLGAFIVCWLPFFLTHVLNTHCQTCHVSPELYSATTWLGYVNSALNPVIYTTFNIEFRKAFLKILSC
Sequence of UniProt Q12866 (whole entry, looked up): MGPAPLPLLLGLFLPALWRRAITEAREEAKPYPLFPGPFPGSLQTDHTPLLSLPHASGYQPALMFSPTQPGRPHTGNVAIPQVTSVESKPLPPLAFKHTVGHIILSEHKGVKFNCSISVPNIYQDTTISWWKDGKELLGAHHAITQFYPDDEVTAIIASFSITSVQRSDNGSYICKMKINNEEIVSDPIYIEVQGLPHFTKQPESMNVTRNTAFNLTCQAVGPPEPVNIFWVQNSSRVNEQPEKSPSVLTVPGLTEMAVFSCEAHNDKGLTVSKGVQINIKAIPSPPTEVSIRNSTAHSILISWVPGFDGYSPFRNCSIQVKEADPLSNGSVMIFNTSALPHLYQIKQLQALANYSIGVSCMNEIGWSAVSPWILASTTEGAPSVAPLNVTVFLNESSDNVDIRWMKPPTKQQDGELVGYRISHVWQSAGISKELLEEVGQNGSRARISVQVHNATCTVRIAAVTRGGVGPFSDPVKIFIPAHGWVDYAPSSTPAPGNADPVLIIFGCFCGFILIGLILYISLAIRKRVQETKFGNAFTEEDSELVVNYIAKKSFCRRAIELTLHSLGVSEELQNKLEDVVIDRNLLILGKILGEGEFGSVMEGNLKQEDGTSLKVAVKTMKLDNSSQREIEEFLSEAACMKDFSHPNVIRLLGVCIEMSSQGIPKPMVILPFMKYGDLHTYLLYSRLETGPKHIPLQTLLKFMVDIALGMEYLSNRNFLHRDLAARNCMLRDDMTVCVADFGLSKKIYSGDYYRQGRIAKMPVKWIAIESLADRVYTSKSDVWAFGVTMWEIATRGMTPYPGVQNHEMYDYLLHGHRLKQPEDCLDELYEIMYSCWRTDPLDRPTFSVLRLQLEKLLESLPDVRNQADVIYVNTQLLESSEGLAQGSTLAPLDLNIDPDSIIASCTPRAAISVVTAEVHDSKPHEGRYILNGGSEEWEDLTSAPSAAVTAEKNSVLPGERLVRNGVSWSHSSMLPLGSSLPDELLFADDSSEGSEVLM
Sequence of UniProt O70528 (whole entry, looked up): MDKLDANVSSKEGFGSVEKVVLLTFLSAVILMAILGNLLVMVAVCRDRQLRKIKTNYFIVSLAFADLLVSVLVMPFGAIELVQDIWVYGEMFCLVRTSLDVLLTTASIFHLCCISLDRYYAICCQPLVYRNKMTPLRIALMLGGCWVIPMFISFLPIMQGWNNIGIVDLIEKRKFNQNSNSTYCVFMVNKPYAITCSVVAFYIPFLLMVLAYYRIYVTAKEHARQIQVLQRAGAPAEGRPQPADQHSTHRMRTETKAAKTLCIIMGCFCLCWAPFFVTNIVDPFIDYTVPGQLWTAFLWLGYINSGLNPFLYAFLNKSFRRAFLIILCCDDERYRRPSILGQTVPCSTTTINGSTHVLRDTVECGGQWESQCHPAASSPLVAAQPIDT
Sequence of UniProt Q9JMD7 (whole entry, looked up): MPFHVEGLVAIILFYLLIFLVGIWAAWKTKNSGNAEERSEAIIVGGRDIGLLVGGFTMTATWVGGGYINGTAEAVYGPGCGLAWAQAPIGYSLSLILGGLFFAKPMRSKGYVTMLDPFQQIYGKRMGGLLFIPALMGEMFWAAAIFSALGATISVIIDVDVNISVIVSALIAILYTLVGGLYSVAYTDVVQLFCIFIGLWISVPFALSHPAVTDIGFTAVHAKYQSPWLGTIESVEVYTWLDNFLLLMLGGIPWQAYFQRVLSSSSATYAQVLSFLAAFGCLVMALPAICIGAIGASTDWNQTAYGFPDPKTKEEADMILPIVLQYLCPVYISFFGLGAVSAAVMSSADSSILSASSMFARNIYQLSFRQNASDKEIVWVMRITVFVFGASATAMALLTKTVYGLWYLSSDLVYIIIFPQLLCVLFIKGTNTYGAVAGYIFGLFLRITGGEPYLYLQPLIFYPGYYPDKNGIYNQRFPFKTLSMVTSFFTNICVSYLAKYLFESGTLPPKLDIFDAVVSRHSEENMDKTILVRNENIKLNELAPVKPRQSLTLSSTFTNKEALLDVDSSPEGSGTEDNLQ
Sequence of UniProt P29275 (whole entry, looked up): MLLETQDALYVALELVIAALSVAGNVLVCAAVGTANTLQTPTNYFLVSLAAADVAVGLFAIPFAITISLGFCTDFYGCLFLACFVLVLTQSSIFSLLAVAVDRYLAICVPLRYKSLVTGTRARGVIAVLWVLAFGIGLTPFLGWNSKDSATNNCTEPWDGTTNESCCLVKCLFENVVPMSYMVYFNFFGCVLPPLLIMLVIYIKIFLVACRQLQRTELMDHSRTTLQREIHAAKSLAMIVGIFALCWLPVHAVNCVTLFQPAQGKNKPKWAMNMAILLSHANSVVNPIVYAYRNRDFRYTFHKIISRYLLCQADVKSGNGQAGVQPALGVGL

| Compound | target or system | assay | system | conditions | scale | endpoint | value |
| --- | --- | --- | --- | --- | --- | --- | --- |
| O=C(Nc1cnccc1Cl)N1CCN(Cc2ccc3c(c2)OC(F)(F)O3)CC1 | HTR4 (Cavia porcellus, UniProt O70528) | radioligand binding | – | 10 µM, together with: [3H]GR-113808 | – | inhibition of binding | -5% |
| COc1ccc(N2C(=O)N(c3c(C)cccc3Cl)Cc3cnc(Nc4ccc(C5CCN(C)CC5)cc4OC)nc32)nc1 | MERTK (Homo sapiens, UniProt Q12866) | kinase activity, inhibitor | – | 0.5 µM, kinase MER | – | inhibition | 5% |
| COc1cc(N)c(Cl)cc1C(=O)NC1CN2CCC1CC2 (centres unmarked) | Adhesion G-protein coupled receptor D1 (ADGRD1, Homo sapiens, UniProt Q6QNK2) | β-arrestin recruitment, TANGO luminescence, item: GPR133 | – | concentration not given | reference: basal luminescence | log2 fold change | 0.764 |
| O=C(c1ccc(Cl)cc1)N1CCN2C(=O)N(OC(=O)N3CCOc4ccccc43)C(=O)C2C1 (centres unmarked) | Kallikrein-6 (Homo sapiens, UniProt Q92876) | enzyme activity, inhibitor, MS-based ABPP | SW-620 conditioned medium | 10 µM, 1 h, 37 °C | reference: compound over DMSO, lower = stronger inhibition | median ratio | 1.09 |
| CCCN(CCC)[C@H]1CCc2c(F)ccc(O)c2C1 | Plasmodium falciparum | – | W2 | – | – | pIC50 | 6.30 |
| CN(C(=O)n1cnc(-c2ccc[n+]([O-])c2)c1)C1CCCCC1 | DRD3 (Homo sapiens, UniProt P35462) | radioligand binding | – | 10 µM, together with: [3H]spiperone | – | inhibition | 2% |
| CN1CCN(c2cc(-c3ccncc3)c(-c3ccc4ccccc4c3)nn2)CC1 | ADORA2B (Homo sapiens, UniProt P29275) | agonist, FLIPR | – | 12.5 µM | – | activation | -2.5% |
| [2H]c1c([2H])c([C@]2([2H])CCCN2C(=O)C(C)(C)Oc2ccc3cn[nH]c3c2)c([2H])c([2H])c1C([2H])([2H])[2H] | Tyrosine-protein kinase ABL1, non-phosphorylated (ABL1, Homo sapiens, UniProt P00519) | KINOMEscan | – | 1 µM | reference: DMSO control | remaining binding | 54% |
| C[C@H]1CN(c2n[nH]c3nc(N[C@H]4CC[C@H](NS(=O)(=O)CCC(F)(F)F)CC4)ncc23)CCO1 | Exportin-7 (Homo sapiens, UniProt Q9UIA9) | Kinobeads competition, item: XPO7 | – | 20 µM, unit not given | reference: vehicle | remaining binding | 1.18 |
| CC[N+](CC)(CC)CCOc1ccc(/C=C/c2ccccc2)cc1 | Plasmodium falciparum | – | Dd2 | – | – | pIC50 | 5.70 |
| O=C(Nc1cccnn1)N1CCC(=Cc2cccc(Oc3ccc(C(F)(F)F)cn3)c2)CC1 | High affinity choline transporter 1 (Rattus norvegicus, UniProt Q9JMD7) | radioligand binding | – | 10 µM, rat transporter, together with: [3H]hemicholinium-3 | – | inhibition of binding | 2% |

Excerpt of the above:
| Compound | target or system | assay | system | conditions | scale | endpoint | value |
| --- | --- | --- | --- | --- | --- | --- | --- |
| [2H]c1c([2H])c([C@]2([2H])CCCN2C(=O)C(C)(C)Oc2ccc3cn[nH]c3c2)c([2H])c([2H])c1C([2H])([2H])[2H] | Tyrosine-protein kinase ABL1, non-phosphorylated (ABL1, Homo sapiens, UniProt P00519) | KINOMEscan | – | 1 µM | reference: DMSO control | remaining binding | 54% |
| C[C@H]1CN(c2n[nH]c3nc(N[C@H]4CC[C@H](NS(=O)(=O)CCC(F)(F)F)CC4)ncc23)CCO1 | Exportin-7 (Homo sapiens, UniProt Q9UIA9) | Kinobeads competition, item: XPO7 | – | 20 µM, unit not given | reference: vehicle | remaining binding | 1.18 |
